# Measured values gathered from unrelated publications.
# Each line is one published result; not all experiments were run side by side. Numbers after ± are the reported error.
Compound,target or system,test,system,conditions,scale,endpoint,result
COC(=O)c1ccc(NC(=O)CSc2nnc(-c3ccc(NC(C)=O)cc3)n2C)cc1,,,octanol/buffer,"pH 11, known kinase inactives set",,logP,2.21
CCN1CCN(Cc2ccc(Nc3ncc(F)c(-c4cc(F)c5nc6n(c5c4)[C@H](C)CCC6)n3)nc2)CC1,,,"human, plasma","50 mg single dose, mean",,Vd/F,1880 L
CC(C(=O)NCC(=O)NCC(CNC(=O)CNC(=O)C(C)N1CCN(CC(=O)[O-])CCN(CC(=O)[O-])CCN(CC(=O)[O-])CC1)(CNC(=O)CNC(=O)C(C)N1CCN(CC(=O)[O-])CCN(CC(=O)[O-])CCN(CC(=O)[O-])CC1)CNC(=O)CNC(=O)C(C)N1CCN(CC(=O)[O-])CCN(CC(=O)[O-])CCN(CC(=O)[O-])CC1)N1CCN(CC(=O)[O-])CCN(CC(=O)[O-])CCN(CC(=O)[O-])CC1.[Gd+3].[Gd+3].[Gd+3].[Gd+3] (stereo not shown),,,"cynomolgus monkey, kidney medulla","dose not given, day 5",,lanthanide concentration,16 ± 4.2 nmol/g
Cc1cc(NC2CCN(C(=O)OC3CCN(C(=O)/C=C/CN(C)C)C3)CC2)n2ncc(C(C)C)c2n1 (stereo not shown),,"Phase I dose escalation CTCAE v4.0, refers to: Constipation",patients with advanced solid tumours,"dose not given, TIW dosing any grade",,patients with adverse event,36%
CCN1/C(=C/C(C)=O)Sc2ccc(F)cc21,,,cynomolgus monkey,"oral, 30 mg/kg, 1 h post-dose",,QT interval,250 ± 23 ms
CC(C)C[C@H](NC(=O)[C@H](CCC1CCCCC1)NC(=O)[C@@H]1CCCN1C(=O)c1ccc(F)cc1)C(=O)NC(C)(C)C(=O)N[C@@H](CC(C)C)C(=O)N[C@@H](CC(C)C)C(=O)NC(C)(C)C(=O)NC(C)(C)C(=O)NCCC(=O)NCCN(C)C,,circular dichroism,phosphate buffer,"pH 7.4, 20 °C",,alpha-helix content,58.1%
CCn1c(=O)c(-c2cc(NC(=O)Nc3ccccc3)c(F)cc2Br)cc2cnc(NC)cc21,,refers to: gastrointestinal disorders,"healthy human, matched to moderate hepatic impairment","oral, 50 mg single dose",,participants with drug-related TEAE,0%
C[C@@H](O)[C@H](NC(=O)c1ccc(-c2ccc(Br)cc2)cc1)C(=O)NCC1(C)NC(=O)NC1=O (stereo partly shown),,,octanol/buffer,pH 11,,logP,0.99
COc1ccc([C@@H](O)c2cc(-c3ncnc4cc(N5CCOCC5)ccc34)c(F)cc2Cl)nn1,,,locally advanced rectal cancer patients,"250 mg, together with: capecitabine and radiotherapy",,diarrhoea TEAE incidence,83%
CC(C)(C(=O)N1CCOc2c(C#N)cncc2C1)C(F)F,,refers to: Dermatitis,human,"oral, 15 mg twice daily, 14 days, multiple ascending dose",,subjects with adverse event,0%
N[C@@H]1c2cccnc2[C@H](OC(=O)N2CCC(n3c(=O)[nH]c4ncccc43)CC2)CC[C@H]1c1cccc(F)c1F,,,human,"oral, fed state",relative to: fasted state,decrease in transit rate constant,70.6%
COc1cc2c(Nc3ccc(Cl)c(Cl)c3F)ncnc2cc1OC[C@@H]1C[C@@H]2CN(C)C[C@@H]2C1,,,FVB Mdr1a/b(-/-) Bcrp1(-/-) mouse,"oral, 70 mg/kg, 2 h",,total brain concentration,10000 ng/mL
COc1ccc(C(O)COc2ccc(-c3csc(-c4ccc(OCC(O)c5ccc(OC)c(OC)c5)cc4)n3)cc2)cc1OC (stereo not shown),,,"C57BL/6J mice, plasma","oral, 10 mg/kg",,tlast,48 h
CCO[C@H]1CCN(Cc2c(OC)cc(C)c3[nH]ccc23)[C@H](c2ccc(C(=O)O)cc2)C1,,,"healthy human controls, plasma","oral, 200 mg single dose, hepatic impairment phase I study",,unbound Cmax (mean),746 ng/mL
COc1c(OCCCN2CCOCC2)ccc2c1N=C(NC(=O)c1cnc(N)nc1)N1CCN=C21,,,"human, mild hepatic impairment",,relative to: normal hepatic function,decrease in clearance,19.2%
Cc1ccc([C@@H]2O[C@H](CO)[C@@H](O)[C@H](O)[C@H]2O)cc1Cc1ccc(-c2ccc(F)cc2)s1,,,Japanese type 2 diabetes patients,"25 mg, day 1, 24 h urine collection",relative to: baseline,urinary sodium excretion change,29.7 mEq
N#Cc1ccc2c(c1)[C@H]1CCCN(C(=O)c3ccc4[nH]cnc4c3)[C@H]1C2,,,"human, female","160 mg, day 7",,androstenedione level,7.4 nmol/L
Cc1nc(C)c(-c2ccnc(Nc3ccc(N(C)C)c(Cl)c3)n2)s1,,,"octanol/buffer, 40 mM buffer",pH 11,,logP,4.3
Cn1nc2c(=O)n(C3CC3)ncc2c1[C@](N)(c1ccc(C(F)(F)F)c(Cl)c1)C1CC1,,,"rat Sprague-Dawley male, blood","intravenous, 1 mg/kg",,"CLint,u",39.5 mL/min/kg
CCOc1c(O)cc(Br)c2c1CN1CCc3cc(OCC(F)F)c(O)cc3[C@@H]1C2,,,mouse liver S9,"2 µM, pH 7.4",,scaled intrinsic clearance,1040 mL/min/kg
NC/C(=C\F)COc1cccc(Cn2c(=S)[nH]c(=O)c3[nH]cnc32)c1,,,dog hepatocytes,"1 µM, 1 h",,remaining compound,77%
NC1(C(=O)N[C@@H](CCO)c2ccc(Cl)cc2)CCN(c2nc[nH]c3nccc2-3)CC1,,,metastatic CRPC patients,"dose not given, grade 3 to 4, treatment-related, all doses, together with: enzalutamide 160 mg daily",,incidence of Fatigue,0%
C=CC(=O)NC1CCN(c2ncc3ncnc(Nc4ccc(Oc5ccc6c(c5)ncn6C)c(C)c4)c3n2)CC1,,refers to: neck pain,human male,"oral, dose not given, CTCAE on-treatment AEs",,adverse events incidence,6%
CCNCCNC(=O)c1c(C)[nH]c(/C=C2\C(=O)Nc3ccc(F)cc32)c1C,,,"human, serum","37.5 mg maintenance, median",,serum concentration/dose ratio,0.39
COc1ccc(Oc2cc(N(C)CCOc3ccc(CC4SC(=O)NC4=O)cc3)ncn2)cc1 (stereo not shown),,,"type 2 diabetes patients, serum","0.5 mg once daily, 12 weeks, real-world retrospective study",,creatinine reduction,0.06 mg/dL
CCn1ncc2c1-c1cnc(N)c(c1)O[C@H](C)c1cc(F)ccc1-c1nn(C)nc1C2,,,"female athymic nude mice, sample B PDX","oral, 5 mg/kg twice daily for 21 days, 1 h",,unbound plasma concentration,325 ± 24 nM
CC(=O)c1ccc([C@H]2C[C@@]3(C)[C@@H](CC[C@@]3(O)C(F)(F)C(F)(F)F)[C@@H]3CCC4=CC(=O)CCC4=C32)cc1,,,"human, pooled serum","oral, 200 mg, day 1, 2 h",,serum concentration,24.2 ng/mL
CCc1cc(C(=O)NC)c2nccc(N3CCc4c(cc(Cn5ccnc5)cc4-c4cn(C)nc4C(F)(F)F)C3=O)c2c1,,,Sprague Dawley rats,"oral, 100 mg/kg twice daily, 7 days",relative to: vehicle,serum LDL change,2.9%
CC(=O)O[C@H]1C(=O)[C@@]2(C)[C@H]([C@H](OC(=O)c3ccccc3)[C@]3(O)C[C@H](OC(=O)[C@H](O)[C@@H](NC(=O)c4ccccc4)c4ccccc4)C(C)=C1C3(C)C)[C@]1(OC(C)=O)CO[C@@H]1C[C@@H]2O,,refers to: Diarrhoea,patients with advanced solid tumours,"intravenous, dose not given, grade 1 and 2, possibly related to drug",,adverse event incidence,30%
CCCCC1=NC2(CCCC2)C(=O)N1Cc1ccc(-c2ccccc2S(=O)(=O)Nc2noc(C)c2C)c(COCC)c1,,,"healthy adult volunteers, plasma","oral, 800 mg, single dose, fasted, crushed tablet",,Cmax,8620 ng/mL
COCCOc1cnc2ccn([C@H](C)c3nnc4c(F)cc(-c5cnn(C)c5)cn34)c(=O)c2c1,,,"patients, plasma","oral, 25 mg once daily, day 1 24 h postdose",,Ctrough,30 ng/mL
Cn1cc(-c2ccc(-c3cncc(Cl)c3N3CCC4(CCNC4=O)CC3)cc2)cn1,COLO 205,"gene expression, microarray, refers to: DDB2 mRNA",,"concentration not given, 6 h",relative to: untreated cells,log2 fold change,2.06
CCc1c(-c2ccccc2)c(-c2ccccc2)nn1-c1ccccc1-c1cccc(OCC(=O)O)c1,,,"female Sprague-Dawley rat, ovary homogenate","oral, 10 mg/kg, 8 h",,concentration,32.8 ng/mL
COc1cccc(OC)c1NS(=O)(=O)c1ccc(N/C=C2\C(=O)Nc3ccc4ncsc4c32)cc1,,,"octanol/buffer, 40 mM buffer",pH 11,,logP,2.69
CC(C)n1c(Nc2cccnc2)nc2cnc(Nc3ccc(N4CCN(C)CC4)cc3)nc21,,refers to: alanine aminotransferase increased,healthy male subjects,"oral, 150 mg, study, together with: rifampin",,subjects with adverse event,7.1%
COc1cc(C(=O)NC2CCN(C)CC2)c(F)cc1Nc1ncc(C(F)(F)F)c(Oc2cccc3c2C(=O)N(C)C3)n1,,,"human patients, plasma","oral, 100 mg once daily repeated, geometric mean",,dose-normalised AUC(tau) at steady state,163 nmol·h/L per mg
O=C(Nc1nc2cccc(-c3ccc(CN4CCS(=O)(=O)CC4)cc3)n2n1)C1CC1,,refers to: constipation,human rheumatoid arthritis patients,"oral, 300 mg once daily, 4 weeks, regardless of relatedness",,treatment-emergent adverse events,0%
COc1ncc(-c2nc3c(n2C(C)C)[C@H](c2ccc(Cl)cc2)N(c2cc(Cl)cn(C)c2=O)C3=O)c(OC)n1,,,"human patients, plasma","oral, 350 mg, 0-24 h, high-dose arm, cycle 2 day 1",,AUC(0-t) geometric mean,37800 ng·h/mL
C=CCNc1nc(C)c(-c2ccnc(Nc3cccc([N+](=O)[O-])c3)n2)s1,,,"octanol/buffer, 40 mM buffer",pH 11,,logP,4.8
CCOc1c([C@H](C)n2nc(C)c3c(N)ncnc32)cc(Cl)c(F)c1[C@@H]1CNC(=O)C1,,ECG,previously treated B-cell malignancy patients,"oral, 20 mg once daily, baseline below thresholds",,observations with HR above 100 bpm,0%
CCCCC/C=C\C/C=C\CCCCCCCC(=O)OCC(COC(=O)CCC(OCCCCCCCC)OCCCCCCCC)COC(=O)OCCCN(CC)CC (stereo not shown),,,,"pH 7.5, formulated",,zeta potential,0 mV
O=C(O)[C@H]1O[C@@H](Oc2cc(-c3oc4cc(O)cc(O)c4c(=O)c3O)ccc2O)[C@H](O)[C@@H](O)[C@@H]1O,,,"human, cerebrospinal fluid","concentration not given, median",,CSF concentration,4.5 nM
N#CN1C[C@H](n2nc(-c3ccc(Oc4ccc(Cl)cn4)cc3)c(C(N)=O)c2N)CCC12CC2,,,"human, fasted, plasma","oral, 600 mg, i=12",,"AUC(0-inf), geometric mean",20600 ng·h/mL

# For quick reference, copied from above:
Compound,target or system,test,system,conditions,scale,endpoint,result
CCOc1c(O)cc(Br)c2c1CN1CCc3cc(OCC(F)F)c(O)cc3[C@@H]1C2,,,mouse liver S9,"2 µM, pH 7.4",,scaled intrinsic clearance,1040 mL/min/kg
NC/C(=C\F)COc1cccc(Cn2c(=S)[nH]c(=O)c3[nH]cnc32)c1,,,dog hepatocytes,"1 µM, 1 h",,remaining compound,77%
NC1(C(=O)N[C@@H](CCO)c2ccc(Cl)cc2)CCN(c2nc[nH]c3nccc2-3)CC1,,,metastatic CRPC patients,"dose not given, grade 3 to 4, treatment-related, all doses, together with: enzalutamide 160 mg daily",,incidence of Fatigue,0%
C=CC(=O)NC1CCN(c2ncc3ncnc(Nc4ccc(Oc5ccc6c(c5)ncn6C)c(C)c4)c3n2)CC1,,refers to: neck pain,human male,"oral, dose not given, CTCAE on-treatment AEs",,adverse events incidence,6%
